Experimental data gathered from unrelated publications.
Protocols differ between the studies behind these lines. ± marks the error that the study gave.
Cell line: HepG2

For `COCCNC(=O)c1cc(-c2ccoc2)ccc1OCCc1cccc(F)c1`, the CC50 was > 50 µM (3 (unit not given), glucose medium).
`COc1ccc(NC(=O)N2CCCCN3[C@H](CN(C)C)[C@H](c4ccc(C#Cc5ccccc5)cc4)[C@@H]3C2)cc1` has a selectivity index of 54 (72 h; relative to: HepG2 CC50 over EC50).
For `[Cl][Cd][Cl]`, the micronucleus frequency was 2 fold (micronucleus; concentration not given, at maximum tested concentration; relative to: vehicle).
For `NC(=O)c1cc(-c2ccsc2)cc(F)c1OCCc1cccc(F)c1`, the selectivity ratio was 1 (3 (unit not given); relative to: CC50 glucose over CC50 galactose).
`CN1CCN(S(=O)(=O)c2ccc(-c3ccc4cnnc(Nc5ccc(OCc6cccc(F)c6)c(Cl)c5)c4c3)cc2)CC1` has a TC50 of > 5 µM (cytotoxicity, MTT; 48 h).
`O=S(=O)(c1ccc(-c2ccc3nccc(Nc4ccccn4)c3c2)cc1)N1CCOCC1` has a TC50 of > 20 µM (cytotoxicity, MTT; 48 h).
The CC50 of `CS(=O)(=O)Nc1ncn(-c2cc(F)c(COc3ccc(OS(=O)(=O)F)cc3)c(F)c2)n1` is reported as > 40 µM.
`COc1ncc(Nc2ccnc3ccc(-c4ccc(S(=O)(=O)N5CCOCC5)cc4)cc23)cn1` gave a TC50 of > 20 µM (cytotoxicity, MTT; 48 h).
For `O=c1ccc2ccccc2o1`, “probability of response” read 93.8% (refers to: phospholipidosis; concentration not given, 24 h, phospholipidosis and steatosis panel).
For `Cc1cc2c(=O)n(Cc3cccnc3)c(=S)[nH]c2cn1`, the LD50 was > 100 µM (24 h).
For `Fc1cccc(COc2ccc(Nc3nncc4cc(-c5cccc(N6CCOCC6)c5)ccc34)cc2Cl)c1`, the TC50 was > 15 µM (cytotoxicity, MTT; 48 h).
The selectivity ratio of `NC(=O)c1cc(-c2ccoc2)cc(F)c1OCCc1cccc(F)c1` is reported as 1 (3 (unit not given); relative to: CC50 glucose over CC50 galactose).
For `CCN1CCN(Cc2ccc(Nc3nc4ccc(Oc5ccnc(NC(C)=O)c5)cc4n3C)cc2C(F)(F)F)CC1`, the EC50 was 6 ± 0.4 µM (cytotoxicity; 48 h).
The TC50 of `Fc1cccc(COc2ccc(Nc3cnnc4ccc(-c5cccc(N6CCOCC6)c5)cc34)cc2Cl)c1` is reported as > 15 µM (cytotoxicity, MTT; 48 h).
`C#Cc1ccc(OCCc2cccc(F)c2)c(C(N)=O)c1` has a CC50 of 45 ± 5.5 µM (3 (unit not given), human).
With `CCOCCOc1ccnc2ccc(-c3ccc(S(=O)(=O)N4CCOCC4)cc3)cc12` the TC50 was > 20 µM (cytotoxicity, MTT; 48 h).
For `Cc1c2ccccc2c(C)c2c1ccc1ccccc12`, “micronuclei fold increase” read 1.2 fold (maximum tested, 24 (unit not given); relative to: vehicle).
`O=S(=O)(c1ccc(-c2ccc3nccc(Nc4ccncn4)c3c2)cc1)N1CCOCC1` gave a TC50 of > 20 µM (cytotoxicity, MTT; 48 h).
The micronucleus frequency of `CN(C)N=O` is reported as 1.1 fold (micronucleus; concentration not given, at maximum tested concentration; relative to: vehicle).
The TC50 of `N#Cc1cnc(Nc2ccnc3ccc(-c4ccc(S(=O)(=O)N5CCOCC5)cc4)cc23)cn1` is reported as > 20 µM (cytotoxicity, MTT; 48 h).
With `N.N.[Cl][Pt][Cl]` the micronucleus frequency was 2.4 fold (micronucleus; concentration not given, at maximum tested concentration; relative to: vehicle).
`CN1CCCN(S(=O)(=O)c2ccc(-c3ccc4c(Nc5ccc(OCc6cccc(F)c6)c(Cl)c5)nccc4c3)cc2)CC1` gave a TC50 of > 15 µM (cytotoxicity, MTT; 48 h).
For `O=C(NC1COC1)c1cc(-c2ccoc2)ccc1OCCc1cccc(F)c1`, the selectivity ratio was 1 (3 (unit not given); relative to: CC50 glucose over CC50 galactose).
`O=S(=O)(c1ccc(-c2ccc3nccc(Nc4cnccn4)c3c2)cc1)N1CCOCC1` has a TC50 of > 20 µM (cytotoxicity, MTT; 48 h).
With `COc1ccc(NC(=O)N2CCCCN3[C@H](CN(C)C)[C@H](c4ccc(C#Cc5ccccc5)cc4)[C@@H]3C2)cc1` the CC50 was 5 µM.
With `O=c1c2cc(Cl)ccc2[nH]c(=S)n1Cc1cccnc1` the LD50 was > 100 µM (24 h).
`NC(=O)c1cc(Br)ccc1OCCc1cccc(F)c1` gave a selectivity ratio of > 2 (3 (unit not given); relative to: CC50 glucose over CC50 galactose).
`CCc1nnc(Nc2ccnc3ccc(-c4ccc(S(=O)(=O)N5CCOCC5)cc4)cc23)s1` gave a TC50 of > 20 µM (cytotoxicity, MTT; 48 h).
With `NC(=O)c1cc(-c2ccsc2)ccc1OCCc1cccc(F)c1` the CC50 was 32 ± 19 µM (galactose medium; 3 (unit not given)).
`CC(c1cccnc1)n1c(=S)[nH]c2ccc(Cl)cc2c1=O` (stereo not drawn) has an LD50 of > 100 µM (24 h).
With `CN1CCN(S(=O)(=O)c2ccc(-c3ccc4c(Nc5ccc(OCc6cccc(F)c6)c(Cl)c5)cnnc4c3)cc2)CC1` the TC50 was > 15 µM (cytotoxicity, MTT; 48 h).
With `CCN(N=O)C(N)=O` the micronucleated cells was 1.4% (maximum tested, 24 (unit not given)).
`CC[C@H]1CN2CCc3cc(OC)c(OC)cc3[C@@H]2C[C@@H]1C[C@H]1NCCc2cc(OC)c(OC)cc21` gave a selectivity index of 64 (72 h; relative to: HepG2 CC50 over EC50).
For `O=S(=O)(c1ccc(-c2ccc3c(Nc4ccc(OCc5ccccc5)c(Cl)c4)nccc3c2)cc1)N1CCOCC1`, the TC50 was > 5 µM (cytotoxicity, MTT; 48 h).
With `O=S(=O)(c1ccc(-c2ccc3nccc(Nc4ccc5[nH]nnc5c4)c3c2)cc1)N1CCOCC1` the TC50 was > 20 µM (cytotoxicity, MTT; 48 h).
For `O=S(=O)(c1ccc(-c2ccc3ccnc(Nc4ccc(OCc5ccccc5)c(Cl)c4)c3c2)cc1)N1CCOCC1`, the TC50 was > 15 µM (cytotoxicity, MTT; 48 h).
`CCc1ccc(OCCc2cccc(F)c2)c(C(N)=O)c1` gave a selectivity ratio of > 1 (3 (unit not given); relative to: CC50 glucose over CC50 galactose).
`CN1CCN(S(=O)(=O)c2ccc(-c3ccc4c(Nc5ccc(OCc6cccc(F)c6)c(Cl)c5)nccc4c3)cc2)CC1` gave a TC50 of > 15 µM (cytotoxicity, MTT; 48 h).
For `O=c1[nH]c2cc(CO)c(Cl)cc2c(=O)n1Cc1cccnc1`, the LD50 was > 100 µM (24 h).

A few entries again:
The selectivity ratio of `NC(=O)c1cc(-c2ccoc2)cc(F)c1OCCc1cccc(F)c1` is reported as 1 (3 (unit not given); relative to: CC50 glucose over CC50 galactose).
For `CCN1CCN(Cc2ccc(Nc3nc4ccc(Oc5ccnc(NC(C)=O)c5)cc4n3C)cc2C(F)(F)F)CC1`, the EC50 was 6 ± 0.4 µM (cytotoxicity; 48 h).
The TC50 of `Fc1cccc(COc2ccc(Nc3cnnc4ccc(-c5cccc(N6CCOCC6)c5)cc34)cc2Cl)c1` is reported as > 15 µM (cytotoxicity, MTT; 48 h).
`C#Cc1ccc(OCCc2cccc(F)c2)c(C(N)=O)c1` has a CC50 of 45 ± 5.5 µM (3 (unit not given), human).
With `CCOCCOc1ccnc2ccc(-c3ccc(S(=O)(=O)N4CCOCC4)cc3)cc12` the TC50 was > 20 µM (cytotoxicity, MTT; 48 h).
